Published values pooled from the literature.
Parts stem from different laboratories: compare values within a part only. Substitutions count along the parent as printed. ± gives the spread as reported.
Sequence of UniProt Q05940 (whole entry, looked up): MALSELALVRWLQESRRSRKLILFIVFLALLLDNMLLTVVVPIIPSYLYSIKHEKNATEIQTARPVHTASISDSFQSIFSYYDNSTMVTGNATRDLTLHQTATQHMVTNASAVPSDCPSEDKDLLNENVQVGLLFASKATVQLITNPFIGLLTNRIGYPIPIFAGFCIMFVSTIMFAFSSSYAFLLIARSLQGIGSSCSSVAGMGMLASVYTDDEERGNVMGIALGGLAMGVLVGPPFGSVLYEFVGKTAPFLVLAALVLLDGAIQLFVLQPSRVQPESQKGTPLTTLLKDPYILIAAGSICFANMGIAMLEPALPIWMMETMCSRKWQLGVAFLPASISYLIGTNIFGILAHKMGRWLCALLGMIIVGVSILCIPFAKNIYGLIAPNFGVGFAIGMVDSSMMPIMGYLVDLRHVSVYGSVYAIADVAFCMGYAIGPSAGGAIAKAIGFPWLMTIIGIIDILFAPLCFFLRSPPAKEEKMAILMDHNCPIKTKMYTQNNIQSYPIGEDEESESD
Sequence of UniProt P10398 (whole entry, looked up): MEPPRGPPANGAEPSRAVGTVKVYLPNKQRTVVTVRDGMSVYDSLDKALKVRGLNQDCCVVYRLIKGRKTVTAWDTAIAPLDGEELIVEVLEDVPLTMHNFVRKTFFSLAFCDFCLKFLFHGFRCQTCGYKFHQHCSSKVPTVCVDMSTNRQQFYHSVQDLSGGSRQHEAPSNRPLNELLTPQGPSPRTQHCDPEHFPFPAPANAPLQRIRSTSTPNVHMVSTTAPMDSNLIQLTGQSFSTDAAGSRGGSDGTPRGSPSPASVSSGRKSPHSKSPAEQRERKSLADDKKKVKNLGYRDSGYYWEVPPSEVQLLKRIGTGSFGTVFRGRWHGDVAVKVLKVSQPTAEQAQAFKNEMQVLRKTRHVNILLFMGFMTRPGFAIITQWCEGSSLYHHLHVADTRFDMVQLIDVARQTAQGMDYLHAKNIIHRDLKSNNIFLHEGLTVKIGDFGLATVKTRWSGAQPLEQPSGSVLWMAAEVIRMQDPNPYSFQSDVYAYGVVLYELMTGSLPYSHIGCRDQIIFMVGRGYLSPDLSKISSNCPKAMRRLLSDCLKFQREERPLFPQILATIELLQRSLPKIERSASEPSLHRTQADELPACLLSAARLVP

Study 1
Target: CCNA2, cyclin fold, Cln2 fusion (human)
Technique: yeast growth competition, sequencing
Medium: yeast
Setting: strong parent motif
Baseline: not given
Reading: higher = stronger binding
Parent: viral docking peptide; CKVKRKLFGSENI
| Substitution | normalised enrichment score |
| --- | --- |
| CKVKRKAFGSENI [L7A] | 0.931 |
| CKVKRKLFGSENA [I13A] | 5.83 |
| CKVKRKLFGSANI [E11A] | 4.44 |
| CKVKRKLLGSENI [F8L] | 0.686 |

Further values, each from its own experiment
| Compound | target or system | assay | test system | conditions | scale | quantity | value |
| --- | --- | --- | --- | --- | --- | --- | --- |
| CNC(=O)Oc1ccc2c(c1)[C@]1(C)CCN(C)[C@@H]1N2C | mouse MPNST tumor cells | high-content immunofluorescence imaging, refers to: nuclear SOX9 |  | 10 µM, 12 h, mean of 2 replicates | baseline: DMSO control, higher = more nuclear SOX9 | nuclear SOX9 intensity | 104 % of DMSO |
| CN[C@@H](C)Cc1ccccc1 | Synaptic vesicular amine transporter (SLC18A2, Homo sapiens, UniProt Q05940) | [3H]dopamine uptake, inhibitor | HEK293 hVMAT2 membranes |  |  | Ki | 6.53 ± 0.38 µM |
| CC(C)(C)c1nc(-c2cccc(NS(=O)(=O)c3c(F)cccc3F)c2F)c(-c2ccnc(N)n2)s1 | Serine/threonine-protein kinase A-Raf (ARAF, Homo sapiens, UniProt P10398) | HSP90 interaction, LUMIER | human cells |  |  | EC50 | 0.12 µM |
| O=C(N[C@H]1CN2CCC1CC2)c1ccc(Cl)cc1 | mouse MPNST tumor cells | high-content immunofluorescence imaging, refers to: nuclear SOX9 |  | 10 µM, 12 h, mean of 2 replicates | baseline: DMSO control, higher = more nuclear SOX9 | nuclear SOX9 intensity | 94.6 % of DMSO |

Some of these lines once more (further values, each from its own experiment):
| Compound | target or system | assay | test system | conditions | scale | quantity | value |
| --- | --- | --- | --- | --- | --- | --- | --- |
| O=C(N[C@H]1CN2CCC1CC2)c1ccc(Cl)cc1 | mouse MPNST tumor cells | high-content immunofluorescence imaging, refers to: nuclear SOX9 |  | 10 µM, 12 h, mean of 2 replicates | baseline: DMSO control, higher = more nuclear SOX9 | nuclear SOX9 intensity | 94.6 % of DMSO |
